Measurements pooled from the literature.
Parts stem from different laboratories: compare values within a part only. Positions count from the first letter of the parent shown.

Sample 1
Target: CCNA2, cyclin fold, Cln2 fusion (human)
Technique: yeast growth competition, sequencing
Sample: yeast
Setting: weak parent motif
Baseline: not given
Direction: higher = stronger binding
Parent: E2F8 docking peptide (human); FVPQRKLEVSTED
Variant | normalised enrichment score
V9A | 0.244
V9L | 0.0279
P3A | -0.021
T11A | -0.37
S10A | 0.328
F1A | 0.582
D13A | 0.203
R5K | -0.104

Sample 2
Target: UBE2B UBC core domain (UniProt P63146)
Sequence of UniProt P63146 (whole entry, looked up): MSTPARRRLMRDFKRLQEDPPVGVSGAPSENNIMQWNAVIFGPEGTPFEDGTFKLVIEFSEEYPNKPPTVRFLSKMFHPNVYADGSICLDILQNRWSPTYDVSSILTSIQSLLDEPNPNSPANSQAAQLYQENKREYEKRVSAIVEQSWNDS
Technique: yeast two-hybrid
Sample: yeast
Setting: mostly zero background
Baseline: not given
Direction: higher = stronger interaction
B1: UHRF2 RING domain (UniProt Q96PU4); chain CGGDPEKKCHSCSCRVCGGKHEPNMQLLCDECNVAYHIYCLNPPLDKVPEEEYWYCPSCKTDSSEVVKAGER
B2: ARK2C RING domain (UniProt Q6ZSG1); chain EGEESDTDEKCTICLSMLEDGEDVRRLPCMHLFHQLCVDQWLAMSKKCPICRVDIETQLGAD
B3: TRIM69 RING domain (UniProt Q86WT6); chain VIQDITMELHCPLCNDWFRDPLMLSCGHNFCEACIQDFWRLQAKETFCPECKMLCQYNNCTF
B4: ZNF598 RING domain (UniProt Q86UK7); chain AAAPERGGGSCVLCCGDLEATALGRCDHPVCYRCSTKMRVLCEQRYCAVCREELRQVVFGK
B5: CUL9 RING domain (UniProt Q8IWT3); chain AQAVPVRPDHCPVCVSPLGCDDDLPSLCCMHYCCKSCWNEYLTTRIEQNLVLNCTCPIADCPAQPTGAFIR
B6: PHF21A RING domain (UniProt Q96BD5); chain SPTSTDGDIHEDFCSVCRKSGQLLMCDTCSRVYHLDCLDPPLKTIPKGMWICPRCQDQMLKKEEAIPW
B7: RNF25 RING domain (UniProt Q96BH1); chain LTDNNIPHGQCVICLYGFQEKEAFTKTPCYHYFHCHCLARYIQHMEQELKAQGQEQEQERQHATTKQKAVGVQCPVCREPLVYDLASL
B8: TRIM63 RING domain (UniProt Q969Q1); chain PMENLEKQLICPICLEMFTKPVVILPCQHNLCRKCANDIFQAANPYWTSRGSSVSMSGGRFRCPTCRHEVIMDRHGV
Molecule | lacZ reporter activity
VTLSLTLPITCHICLGKVRQPVICINNHVFCSICIDLWLKNNSQCPACRVPITPENPCK (OBI1 RING domain (UniProt Q5W0B1)) | 0
DDENSDNSNECVVCLSDLRDTLILPCRHLCLCTSCADTLRYQANNCPICRLPFRALLQIR (MGRN1 RING domain (UniProt O60291)) | 0
B1 (UHRF2 RING domain) | 0
B2 (ARK2C RING domain) | 0
B3 (TRIM69 RING domain) | 0
DAIPSLSECQCGICMEILVEPVTLPCNHTLCKPCFQSTVEKASLCCPFCRRRVSSWTRYH (RNF168 RING domain (UniProt Q8IYW5)) | 0
B4 (ZNF598 RING domain) | 0
B5 (CUL9 RING domain) | 0
B6 (PHF21A RING domain) | 0
QLRRLQEERTCKVCMDKEVSVVFIPCGHLVVCQECAPSLRKCPICRGIIKGTVRTF (BIRC2 RING domain (UniProt Q13490)) | 0
B7 (RNF25 RING domain) | 0
FASPPDSNFVCSVCHGVLKRPARLPCSHIFCKKCILRWLARQKTCPCCRKEVKRKKVVH (RNF151 RING domain (UniProt Q2KHN1)) | 0
QHHELTSLFECPVCFDYVLPPILQCQAGHLVCNQCRQKLSCCPTCRGALTPSIRNL (SIAH2 RING domain (UniProt O43255)) | 0
B8 (TRIM63 RING domain) | 0

Sample 3
Target: Sal-like protein 4, full length isoform B (SALL4, Homo sapiens, UniProt Q9UJQ4-2, residues 1-616)
Technique: universal PBM
Form: double-stranded DNA, one strand shown
Sample: in vitro
Concentration: not given
Setting: 8-mer, flanks averaged, mean of replicates
Direction: higher = stronger binding
Sequence | E-score
CATGCGTC | -0.196
ACGACTAT | 0.166
CGGAAAAC | -0.0354
CGAGACAC | -0.202
ACCAACTA | 0.162
CTAGGGTC | -0.258
GCTCGGCA | -0.176
ATGGCTAG | 0.0226
TACCAATA | 0.279
AATTAAAA | 0.322
AACGGCGG | -0.211
GCGCTTAA | -0.0948
CAAAAACG | -0.0081
AACTACGG | -0.053
AGTCTAAG | 0.068
CACCGGCA | -0.266
GGTGAGAA | -0.0157
CGAAAAGA | -0.00781
AGCGCTAG | -0.169
AGATGGAG | -0.1

Sample 4
Target: Histone acetyltransferase KAT6A, winged helix 2, GST fusion (KAT6A, Homo sapiens, UniProt Q92794, residues 85-181)
Technique: protein binding microarray
Form: double-stranded DNA, one strand shown
Sample: in vitro
Concentration: not given
Setting: 8-mer, flanks averaged, mean of 2 arrays, mostly near background
Baseline: not given
Direction: higher = stronger binding
Construct (chain): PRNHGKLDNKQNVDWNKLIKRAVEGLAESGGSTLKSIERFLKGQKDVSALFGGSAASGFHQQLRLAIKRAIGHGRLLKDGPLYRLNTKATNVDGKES
Sequence | E-score
ACTCATTC | -0.213
CCATCGTC | 0.0307
AGCTAAGC | 0.0219
CAGACTTC | -0.193
CCTAAACA | -0.13
AAGCGGAC | -0.159
AAATAAGG | -0.00645
CCTGGGCA | 0.0668
ACGAGGGG | -0.0262
ACCGTGAC | -0.161
CGGCAACG | 0.0274
GACTGCAA | -0.217
GCGTGTGA | -0.0238
CAGCCGGG | 0.135
CTCCCTCA | -0.0728
ACAAAGCT | 0.0119
ACCCGTAT | -0.0433
CGCGATGA | 0.0992
ATATGGAT | -0.0012
AGTCGCTA | -0.0271

Sample 5
Target: Prothrombin, mature alpha-thrombin (F2, Homo sapiens, UniProt P00734)
Technique: aptamer microarray, sandwich
Form: DNA with 2'F-ANA
Sample: in vitro
Concentration: 200 nM
Setting: whole 15-mer aptamer, many near background
Added: Cy3 exosite-II aptamer, 400 nM
Direction: higher = stronger binding
Sequence: GGTTGGTGTGGTTGG
Modification | mean fluorescence intensity [a.u.]
2'F-ANA at 1 2 3 4 5 9 11 13 | 53.9
2'F-ANA at 1 2 3 4 6 7 8 9 12 | 354
2'F-ANA at 3 4 5 7 9 11 12 14 | 58.4
2'F-ANA at 1 3 4 5 6 10 12 13 14 | 47.2
2'F-ANA at 3 5 9 11 13 14 | 52.5
2'F-ANA at 1 2 7 10 11 12 13 14 | 186
2'F-ANA at 1 2 4 5 6 8 9 10 11 12 14 | 52.9
2'F-ANA at 3 4 5 6 8 10 11 12 13 14 15 | 68.1
2'F-ANA at 1 2 3 10 13 15 | 68.8
2'F-ANA at 1 2 3 4 5 6 7 10 12 13 15 | 51.6
2'F-ANA at 4 5 6 9 12 13 14 | 47
2'F-ANA at 3 6 9 13 14 | 497
2'F-ANA at 3 13 14 | 641
2'F-ANA at 1 4 6 7 9 12 15 | 213
2'F-ANA at 1 3 4 5 6 8 10 11 13 14 15 | 50.4
2'F-ANA at 2 4 5 7 10 12 13 15 | 48.4
2'F-ANA at 1 2 5 6 7 11 12 13 14 15 | 51.3
2'F-ANA at 2 3 4 5 9 10 11 12 13 14 15 | 50.1
2'F-ANA at 2 5 8 9 12 13 14 | 67.1
2'F-ANA at 5 10 11 12 13 | 73.8
2'F-ANA at 1 3 4 7 8 9 10 12 13 14 | 54.1
2'F-ANA at 2 4 5 8 11 12 13 14 | 48.6
2'F-ANA at 1 2 6 7 9 10 12 13 15 | 64.9
2'F-ANA at 3 6 7 8 10 11 12 13 14 | 338
2'F-ANA at 3 4 6 9 10 11 13 14 | 226

Sample 6
Target: CEBPE, bZIP domain (human)
Technique: DHFR protein complementation
Sample: yeast
Setting: single substitutions, most at no-binding floor
Baseline: wild-type JUN-FOS pair
Direction: higher = stronger binding
Parent: JUN, bZIP domain (human); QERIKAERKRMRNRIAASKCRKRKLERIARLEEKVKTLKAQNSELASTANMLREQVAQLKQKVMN; partner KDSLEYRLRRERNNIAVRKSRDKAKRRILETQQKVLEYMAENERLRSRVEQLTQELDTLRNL
Variant | binding fitness [natural log]
L31H | -1.46
L59G | -1.49
L45R | -1.49
M51V | -1.15
L38Q | -1.57
A57Y | -1.06
L45I | -1.45
A46V | -1.13
L45D | -1.49
N42D | -1.47
R30T | -1.01
T37R | -1.14
K34P | -1.47
S47Q | -1.03
A40N | -1.11
S43E | -0.844
A40M | -1.13
L52K | -1.44
A49R | -1.39
K34Y | -0.862
R30L | -1.04

Sample 7
Target: ABI1, truncated, D143A, DHFR fusion (Arabidopsis thaliana)
Technique: DHFR PCA, deep sequencing
Sample: yeast
Setting: methotrexate growth selection, single substitutions
Added: (+)-ABA 4.8 µM
Baseline: wild-type fitted maximum
Direction: higher = stronger binding
Parent: PYL1, truncated, DHFR fusion (Arabidopsis thaliana); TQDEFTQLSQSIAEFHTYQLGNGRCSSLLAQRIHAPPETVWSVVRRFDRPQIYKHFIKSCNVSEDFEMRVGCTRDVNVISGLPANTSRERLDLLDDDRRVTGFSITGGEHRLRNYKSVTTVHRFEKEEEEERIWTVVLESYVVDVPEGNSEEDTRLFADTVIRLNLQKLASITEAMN
Variant | relative binding score
R111G | 5.16%
R90Q | 50.4%
T86F | 72.7%
A158K | -4.32%
Q10A | 78.7%
V121T | -6.19%
T106F | 73.6%
N114V | -14.5%
S87E | -3.38%
I79S | 46.2%
E109K | 43.2%
R46T | 23.7%
R155G | -0.235%
T39M | 72.8%
Y53H | 38.5%
R163D | -7.94%
V118M | 53%
D144K | -3.34%
G81F | -18.9%
S104W | -16%
V161G | -2.6%
R113L | 50.4%
D92Y | 6.45%
R45D | -2.1%
Y141P | -1.12%

For quick reference, copied from above (sample 5):
Modification | mean fluorescence intensity [a.u.]
2'F-ANA at 1 2 3 4 5 6 7 10 12 13 15 | 51.6
2'F-ANA at 4 5 6 9 12 13 14 | 47
2'F-ANA at 3 6 9 13 14 | 497
2'F-ANA at 3 13 14 | 641
2'F-ANA at 1 4 6 7 9 12 15 | 213
2'F-ANA at 1 3 4 5 6 8 10 11 13 14 15 | 50.4
2'F-ANA at 2 4 5 7 10 12 13 15 | 48.4
2'F-ANA at 1 2 5 6 7 11 12 13 14 15 | 51.3
2'F-ANA at 2 3 4 5 9 10 11 12 13 14 15 | 50.1
2'F-ANA at 2 5 8 9 12 13 14 | 67.1
2'F-ANA at 5 10 11 12 13 | 73.8
2'F-ANA at 1 3 4 7 8 9 10 12 13 14 | 54.1
2'F-ANA at 2 4 5 8 11 12 13 14 | 48.6
